{"data": "Measurements of several laboratories", "note": "“And” joins repeats or separate records; there may be more than shown. ± gives the spread as reported."}
{"SMILES": "O=C(CN1CCN(c2cc3c(cc2F)c(=O)c(C(=O)O)cn3C2CC2)CC1)Nc1ccc(Cl)cc1", "test system": "female BALB/c mice", "conditions": "intravenous, 1.25 mg/kg, one-compartment model", "measurement": "elimination rate constant k10", "value": "0.00203 min⁻¹"}
{"SMILES": "CCCCCCCCCCCC(=O)C(C)C(=O)N1CCC[C@H]1C(=O)NC(C)(C)C(=O)NC(C)(C)C(=O)NC(C)(C)C(=O)N[C@](C)(CC)C(=O)NCCC(=O)N[C@@H](C)C(=O)N[C@](C)(CC)C(=O)N[C@@H](C)C(=O)N[C@@H](CC(C)C)C(=O)N[C@](C)(CC)C(=O)NCCC(=O)N[C@@H](C)C(=O)N[C@](C)(CC)C(=O)NCCC(=O)N[C@@H](C)C(=O)NC(C)(C)C(=O)NC(C)(C)C(=O)NC(C)(C)C(=O)N[C@@H](C)C(=O)N[C@@H](CC(=O)O)C(=O)O (stereo partly shown)", "test": "LC-MS", "test system": "50% pooled human serum", "conditions": "40 µM, 12 h, pH 7.5, 37 °C", "measurement": "remaining compound", "value": "~27%"}
{"SMILES": "O=P1(NCCCl)NCCCO1 (stereo not shown)", "test system": "rat, plasma", "conditions": "intravenous, 10 mg/kg CP, added: ketoconazole 10 mg/kg oral 50 min before", "measurement": "Cmax", "value": "0.0693 ± 0.0222 µg/mL"}
{"SMILES": "O=C(c1ccc(F)cc1)C1CCN(C2Cc3c(cccc3OCC[18F])CC2O)CC1 (single isomer, unassigned; (-))", "test system": "Sprague-Dawley rat, male, spleen", "conditions": "intravenous, dose not given, 30 min", "measurement": "tissue uptake", "value": "0.685 ± 0.082 %ID/g"}
{"SMILES": "O=c1cc(-c2ccccc2)oc2c(Br)c(O)c(O)c(O)c12", "test system": "C57BL/6 mouse, plasma", "conditions": "po, 150 mg/kg, enterohepatic recirculation", "measurement": "time of secondary peak", "value": "6 h and 12 h"}
{"SMILES": "COc1cc(NC(=O)C(=O)c2c(C)n(Cc3ccc(Cl)cc3)c3ccc(C)cc23)ccn1", "test system": "female cynomolgus monkey, plasma", "conditions": "oral, 10 mg/kg", "measurement": "AUC", "value": "3.49 µg·h/mL"}
{"SMILES": "[11CH3]n1c(=O)n(CCCO)c(=O)c2c1nc(Oc1cccc(OC(F)(F)F)c1)n2Cc1ccc(Cl)cc1", "test": "PET", "test system": "cynomolgus monkey, male, brain", "how to read": "relative to: 8 min over 120 min", "measurement": "brain SUV ratio", "value": "2.75 fold"}
{"SMILES": "CC[C@H](C)[C@H](NC(=O)[C@H](CC(N)=O)NC(=O)[C@H](CCCCN)NC(=O)[C@@H](NC(=O)[C@@H](N)CC(C)C)[C@@H](C)CC)C(=O)NCC(=O)N[C@H](C(=O)N[C@H](C(=O)N[C@H](C(=O)N[C@@H](CO)C(=O)N[C@@H](CCCCN)C(=O)N[C@H](C(=O)N[C@H](C(=O)N[C@@H](CCCCN)C(=O)N[C@H](C(=O)N[C@H](C(=O)N[C@@H](Cc1c[nH]c2ccccc12)C(=O)N[C@@H](CCCCN)C(=O)N[C@@H](Cc1ccccc1)C(=O)N[C@H](C(=O)N[C@@H](CC(=O)O)C(=O)N[C@@H](CC(=O)O)C(=O)O)[C@@H](C)O)C(C)C)[C@@H](C)O)[C@@H](C)CC)[C@@H](C)CC)C(C)C)[C@@H](C)CC)[C@@H](C)O", "test": "circular dichroism", "test system": "POPC vesicles", "conditions": "pH 7.5", "measurement": "fractional helicity", "value": 0.55}
{"SMILES": "CCCCCCCCCCCCC(=O)O.O=C1CCCC2C3CCCN4CCCC(CN12)C34 (stereo not shown)", "test": "thermogravimetry", "conditions": "first decomposition step, added: heating 10 K/min under argon", "measurement": "onset decomposition temperature", "value": "201 °C"}
{"SMILES": "[2H]C([2H])([2H])C([2H])([2H])C([2H])([2H])OC(C(=O)OC1CCNCC1)(c1ccccc1)c1ccccc1", "test": "refers to: nasopharyngitis", "test system": "healthy Japanese male", "conditions": "oral, 12 mg, 16 days, multiple ascending dose", "measurement": "adverse drug reactions", "value": "0%"}
{"SMILES": "COc1cc2ncnc(Oc3cccc(N[11C](=O)Nc4cc(C(C)(C)C(F)(F)F)on4)c3)c2cc1OC", "test": "radio-HPLC", "test system": "Balb/c nude mice, urine", "conditions": "intravenous, 30 min", "how to read": "relative to: radioactivity", "measurement": "intact compound", "value": "1.98 ± 0.79%"}
{"SMILES": "CC(C)[C@H](NC(=O)CNC(=O)[C@H](CCC(N)=O)NC(=O)[C@H](C)N)C(=O)O", "test system": "human", "conditions": "single dose, 10 mg/kg", "measurement": "probably related adverse events", "value": "0%"}
{"SMILES": "CSCC[C@@H]1NC(=O)[C@@H]2CSSC[C@H](NC(=O)[C@H](CO)NC(=O)[C@H](C)N)C(=O)N[C@@H](CCCNC(=N)N)C(=O)N[C@@H]([C@@H](C)O)C(=O)N3CCC[C@H]3C(=O)N[C@@H](CCCCN)C(=O)N[C@@H](CC(=O)O)C(=O)N[C@H]3CSSC[C@H](NC(=O)[C@H](CCCCN)NC(=O)[C@H](CCCNC(=N)N)NC(=O)[C@H](CC(N)=O)NC1=O)C(=O)N[C@@H](CCCCN)C(=O)N[C@H]1CSSC[C@H](NC(=O)[C@@H]4CCCN4C(=O)[C@H](CC(=O)O)NC(=O)[C@H](C)NC3=O)C(=O)N[C@@H](C)C(=O)N[C@@H](CCCCN)C(=O)N[C@@H](CCC(=O)O)C(=O)N[C@@H]([C@@H](C)O)C(=O)NCC(=O)N[C@@H](CSSC[C@@H](C(N)=O)NC(=O)[C@H](CCCNC(=N)N)NC(=O)[C@H](CC(N)=O)NC1=O)C(=O)N1CCC[C@H]1C(=O)N[C@@H](Cc1ccc(O)cc1)C(=O)NCC(=O)N[C@@H](CCCCN)C(=O)N2", "test system": "DA rat, pristane-induced arthritis, serum", "conditions": "subcutaneous, 0.1 mg/kg every other day, 21 days", "measurement": "VLDL", "value": "9 mg/dL"}
{"SMILES": "COC(=O)C[C@](O)(CCCC(C)(C)OC(C)=O)C(=O)O[C@@H]1C(OC)=C[C@]23CCCN2CCc2cc4c(cc2[C@H]13)OCO4", "test system": "CD1 mouse, stomach", "conditions": "oral, 1 mg/kg, 2 h", "measurement": "tissue concentration", "value": "582 ng/mL"}
{"SMILES": "CC[C@H](C)CCCCC(=O)N[C@@H](CCN)C(=O)N[C@H](C(=O)N[C@@H](CCN)C(=O)N[C@H]1CCNC(=O)[C@H]([C@@H](C)O)NC(=O)[C@H](CCN)NC(=O)[C@H](CCN)NC(=O)[C@H](CC(C)C)NC(=O)[C@@H](Cc2ccccc2)NC(=O)[C@H](CCN)NC1=O)[C@@H](C)O", "test": "LC-MS/MS", "test system": "CD-1 mouse, kidney homogenate", "conditions": "subcutaneous, 17.2 mg/kg single dose, 4 to 16 h", "measurement": "kidney AUC(4-16 h)", "value": "688 µg·h/g"}
{"SMILES": "CC[C@@H]1C[C@]1(NC(=O)[C@@H]1C[C@@]2(CN1C(=O)[C@@H](NC(=O)[C@@H](NC(=O)[C@@H]1CCCCN1C(C)C)C1CCCCC1)C(C)(C)C)C(C)(C)C21CCC1)C(=O)NS(=O)(=O)N1CCCC1", "test system": "human", "conditions": "oral, 50 mg, added: ritonavir", "how to read": "relative to: without ritonavir", "measurement": "fold increase in Cmax", "value": "~10 fold"}
{"SMILES": "COc1cc(-c2cncc(-c3ccc(N4CCNCC4)cc3)c2C)cc(O[11CH3])c1F", "test": "dynamic PET", "test system": "Sprague-Dawley rats male, whole brain", "conditions": "intravenous, 16 to 23 MBq", "measurement": "peak SUV", "value": 1.1}
{"SMILES": "CN[C@](C)(C[18F])C(=O)O", "tested on": "A549 tumour model", "test system": "host not given, kidney", "conditions": "1 h, tumour-bearing", "measurement": "tracer uptake", "value": "4.1 %ID/g"}
{"SMILES": "N#CC1(c2ccc3c(N)ncnn23)OC(COP(=O)(O)OP(=O)(O)OP(=O)(O)O)C(O)C1O (stereo not shown)", "test": "LC-MS/MS", "test system": "CD-1 mouse, liver", "conditions": "oral, 100 mg/kg of remdesivir", "measurement": "Cmax", "value": "5250 nmol/kg"}
{"SMILES": "CC[C@H](C)C(=O)N1CCC(NC(=O)Nc2ccc(OC(F)(F)F)c(F)c2)CC1", "test system": "healthy volunteers", "conditions": "oral, 16 mg single dose, device site dermatitis", "measurement": "subjects with dermatitis TEAE", "value": "66.7%"}
{"SMILES": "C/C=C/C=C/C/C=C/CCCCCCCc1cccc(O)c1O", "test system": "female Kunming mice tumour-bearing, kidneys", "conditions": "intravenous, 10 mg/kg, 1 h", "measurement": "tissue concentration", "value": "15700 ± 1450 ng/g"}
{"SMILES": "CC(C)[C@H](NC(=O)CNC(=O)[C@H](CCC(N)=O)NC(=O)[C@H](C)N)C(=O)O", "test system": "healthy male volunteers", "conditions": "intravenous, 45 mg/kg/h, 2 h, added: LPS 2 ng/kg", "measurement": "subjects with serious AE", "value": "0%"}
